{"data": "Measured values from different studies", "note": "Protocols differ between the studies behind these lines. Numbers after ± are the reported error."}
{"Structure (SMILES)": "CN[C@](C)(C[18F])C(=O)O", "species": "SCID mouse MDA-MB-468 xenograft", "matrix": "brain", "time": "15 min", "setting": "post injection", "tissue uptake": "0.4 ± 0.1 %ID/g"}
{"Structure (SMILES)": "N=C(N)NCc1ccc(C(=O)NCCCC[C@H](NC(=O)CCCCCCC(=O)NCCCC[C@H](NC(=O)N[C@@H](CCC(=O)O)C(=O)O)C(=O)O)C(=O)O)cc1[211At]", "species": "SCID mouse, PC-3 xenografts", "matrix": "muscle", "time": "21 h", "tissue uptake": "0.22 ± 0.06 %ID/g"}
{"Structure (SMILES)": "O=C(O)CC[C@H](NC(=O)O[C@@H](CCCCNC(=O)c1ccc([18F])cc1)C(=O)O)C(=O)O", "species": "mouse, PC-3 PIP/flu xenografts", "matrix": "liver", "time": "180 min", "tissue uptake": "4.62 ± 3.8 %ID/g"}
{"Structure (SMILES)": "CN(C)c1ccc(C(=O)NCCCCN2CCN(c3ccccc3O[11CH3])CC2)cc1", "species": "male Sprague Dawley rat", "matrix": "kidney", "route": "iv", "time": "30 min", "reference": "untreated", "tissue uptake": "1.96 %ID/g"}
{"Structure (SMILES)": "COc1ccc(C)cc1NC(=O)OC1CC2CCCC(C1)N2Cc1ccc(CC[18F])cc1 (stereo not drawn)", "species": "BALB/c mice, EMT6 tumour", "matrix": "brain", "time": "5 min", "tissue uptake": "2.65 ± 0.24 %ID/g"}
{"Structure (SMILES)": "N=C(N)NCc1ccc(C(=O)NCCCC[C@H](NC(=O)CCCCCCC(=O)NCCCC[C@H](NC(=O)N[C@@H](CCC(=O)O)C(=O)O)C(=O)O)C(=O)O)cc1[131I]", "species": "SCID mouse, PC-3 xenografts", "matrix": "heart", "time": "21 h", "tissue uptake": "0.02 ± 0.01 %ID/g"}
{"Structure (SMILES)": "CCNc1cc2[o+]c3cc(NCC)c(C)cc3c(-c3ccccc3C(=O)OCCOCC[18F])c2cc1C", "species": "rat", "matrix": "gut", "time": "120 min", "tissue uptake": "1.07 ± 0.28 %ID/g"}
{"Structure (SMILES)": "C=Cc1cc(O)cc2nc(-c3ccc(O)c([76Br])c3)oc12", "species": "female C57BL/6 mouse", "matrix": "kidney", "time": "3 h", "setting": "high dose", "tissue uptake": "0.82 ± 0.16 %ID/g"}
{"Structure (SMILES)": "N=C(N)NCc1ccc(C(=O)NCCCC[C@H](NC(=O)N[C@@H](CCC(=O)O)C(=O)O)C(=O)O)cc1[211At]", "species": "SCID mouse, PC-3 xenografts", "matrix": "spleen", "time": "21 h", "tissue uptake": "0.93 ± 0.37 %ID/g"}
{"note": "A few entries again:"}
{"Structure (SMILES)": "CN(C)c1ccc(C(=O)NCCCCN2CCN(c3ccccc3O[11CH3])CC2)cc1", "species": "male Sprague Dawley rat", "matrix": "kidney", "route": "iv", "time": "30 min", "reference": "untreated", "tissue uptake": "1.96 %ID/g"}
